{"data": "Experimental data collected from several papers", "technique": "steady-state kinetics", "B1": "nitrilase Y142F (Rhodococcus rhodochrous, UniProt A4LA85); chain MVEYTNTFKVAAVQAQPVWFDAAKTVDKTVSIIAEAARNGCELVAFPEVFIPGYPYHIWVDSPLAGMAKFAVRYHENSLTMDSPHVQRLLDAARDHNIAVVVGISERDGGSLYMTQLIIDADGQLVARRRKLKPTHVERSVFGEGNGSDISVYDMPFARLGALNCWEHFQTLTKYAMYSMHEQVHVASWPGMSLYQPEVPAFGVDAQLTATRMYALEGQTFVVCTTQVVTPEAHEFFCENEEQRKLIGRGGGFARIIGPDGRDLATPLAEDEEGILYADIDLSAITLAKQAADPVGHYSRPDVLSLNFNQRRTTPVNTPLSTIHATHTFVPQFGALDGVRELNGADEQRALPSTHSDETDRATASI", "B2": "enzyme D236N (Acetivibrio thermocellus, UniProt A3DJ38); chain MKLTIPELSLVVLIGSSGSGKSTFAKKHFKPTEVISSDFCRGLVSDDENDQTVTGAAFDVLHYIVSKRLQLGKLTVVDATNVQESARKPLIEIAKDYHCFPVAVVFNLPEKVCQERNKNRTDRQVEEYVIRKHTQQLKKSIKGLQREGFRYVYILNSPEEVEEVVFERQPLWNNKKDEHGPFDIIGDIHGCYDELKMLLEKLGYLIEEVEGGVGSGKYRVTHPEGRKVLFLGDLVNRGPKITEVLKLVMGMVKSGIALCVPGNHDVKLLRKLNGRDVQITHGLDRTLEQLAKEPQEFIEEVKAFIDGLVSHYVLDDGKLVVAHAGMKEEFQGRGSGKVREFALYGETTGETDEYGLPVRYDWASDYRGKALVVYGHTPQAEVLKVNNTINIDTGCVFGGKLTAYRYPEREIVDVKALKTYYEPAKPFLPKEDMAERFEARTDNDILDINDVLGKKIITTRLMSSITIHEENSIAALEVMSRFAADPHWLIYLPPTMSPCETSKKEGMLEHPIEAFEYFRTRGVGKVVCEQKHMGSRAVVIVCKDSQVAEKRFGVLDGTAGICYTRTGRHFFDDMQLEAELIDRVRKVLDKSGFWGDFNTDWVCLDCELMPWSAKAQKLLEEQYSAVGISGRVVLDEAVKLLKQASLNKTVSFDVSRQTSGKNADINELLQRFTERSEMMQKYVEAYRKYCWPVNSIDDLKLAPFHILATEGKVHSDKNHIWHMDTIAKYCTQDDSLIMATNHILVDVTDAESVDKGIKWWEDLTASGGEGMVVKPYDFIVKNGRELLQPAVKCRGREYLRIIYGPEYTMDENIERLRNRAVGKKRSLALREFSLGMEALERFVRNEPLYRVHECVFGVLALESEPVDPRL", "B3": "protein E27A (uncultured bacterium HF130_AEPn_1, UniProt D0E8I5); chain MSLSNSSKVSVLISLLEKSRDLDYIGAAINQLEHSLQCAYFAQRSGADNEMVLAALLHDLGHYCNDTSFEDMGGYGVWQHEKVGADYLRGLGFSERVACLIEGHVAAKRYLVSSKASYLKNLSDASRKTLEYQGGPMDEGERRLFEEREDFKDCLKIRAWDEKGKQTDLKVPGPEHYRKMMEEHLSENQN", "B4": "enzyme N249W (Thermobifida fusca, UniProt Q47RK4); chain MTDVYILDAVRTPFGRYGGALSGIRPDDLAAHVLRALAERSPGLDPAAVDDVFFGDANGAGEDNRNVARMAALLAGWPTSVPGVTLNRLCGSGMESVIAANRAIAVGDASLAVAGGVESMSRAPWVLPKPAQGFPTGHETLYSTTLGWRMVNPAMPEQWTVSLGESTEQVAATYGISRAEQDAFALRSHERAARAWAEGVFDAEITQIPGAELERDESIRETSAEKLAALKPAFRPDGTITAGNASPLWDGAAALLIGDAAAAERVGREPLARIVSRGVAAVDPDVFGIGPVQAAEIALRRAGIGWDDLSVVELNEAFAAQSLACLKLWPDLDPEIVNPNGGAIAIGHPLGASGARIVGTLAHELHRRGGGWGLAAICIGVGQGLAVVLHR", "B5": "protein F432W (Streptomyces toyocaensis, UniProt Q8KLK7); chain MTTVLPPLEDTDGLWAALTEAAASVEKLLATLPEHGARSSAERAEIAAAHDAARALRVRFLDTHADAVYDRLTDHRRVHLRLAELVEAAATAFPGLVPTQQQLAVERSLPQAAKEGHEIDQGIFLRAVLRSPLAGPHLLDAMLRPTPRALELLPEFVRTGEVEMEAVHLERRDGVARLTMCRDDRLNAEDGQQVDDMETAVDLALLDPGVRVGLLRGGVMSHPRYRGKRVFSAGINLKYLSQGGISLVDFLMRRELGYIHKLVRGVLTNDDRPGWWHSPRIEKPWVAAVDGFAIGGGAQLLLVFDRVLASSDAYFSLPAAKEGIIPGAANLRLGRFAGPRVSRQVILEGRRIWAKEPEARLLVDEVVEPDELDAAIERSLTRLDGDAVLANRRMLNLADESPDGFRAYMAEFALMQALRLYGHDVIDKVGRWGGRPPA", "B6": "EutE V13D (Escherichia coli, UniProt P77445); chain MNQQDIEQVVKADLLKMQSSDTPSAAVHEMGVFASLDDAVAAAKVAQQGLKSVAMRQLAIAAIREAGEKHARDLAELAVSETGMGRVEDKFAKNVAQARGTPGVECLSPQVLTGDNGLTLIENAPWGVVASVTPSTNPAATVINNAISLIAAGNSVIFAPHPAAKKVSQRAITLLNQAIVAAGGPENLLVTVANPDIETAQRLFKFPGIGLLVVTGGEAVVEAARKHTNKRLIAAGAGNPPVVVDETADLARAAQSIVKGASFDNNIICADEKVLIVVDSVADELMRLMEGQHAVKLTAEQAQQLQPVLLKNIDERGKGTVSRDWVGRDAGKIAAAIGLKVPQETRLLFVETTAEHPFAVTELMMPVLPVVRVANVADAIALAVKLEGGCHHTAAMHSRNIENMNQMANAIDTSIFVKNGPCIAGLGLGGEGWTTMTITTPTGEGVTSARTFVRLRRCVLVDAFRIV", "B7": "enzyme D418A (Limosilactobacillus reuteri, UniProt Q8GP32); chain SADTNIENNDSSTVQVTTGDNDIAVKSVTLGSGQVSAASDTTIRTSANANSASSAANTQNSNSQVASSAAITSSTSSAASSNNTDSKAAQENTNTAKNDDTQKAAPANESSEAKNEPAVNVNDSSAAKNDDQQSSKKNTTAKLNKDAENVVKKAGIDPNSLTDDQIKALNKMNFSKAAKSGTQMTYNDFQKIADTLIKQDGRYTVPFFKASEIKNMPAATTKDAQTNTIEPLDVWDSWPVQDVRTGQVANWNGYQLVIAMMGIPNQNDNHIYLLYNKYGDNELSHWKNVGPIFGYNSTAVSQEWSGSAVLNSDNSIQLFYTRVDTSDNNTNHQKIASATLYLTDNNGNVSLAQVANDHIVFEGDGYYYQTYDQWKATNKGAANIAMRDAHVIEDDNGDRYLVFEASTGLENYQGEDQIYNWLNYGGDDAFNIKSLFRILSNDDIKSRATWANAAIGILKLNKDEKNPKVAELYSPLISAPMVSDEIERPNVVKLGNKYYLFAATRLNRGSNDDAWMNANYAVGDNVAMVGYVADSLTGSYKPLNDSGVVLTASVPANWRTATYSYYAVPVAGKDDQVLVTSYMTNRNGVAGKGMDSTWAPSFLLQINPDNTTTVLAKMTNQGDWIWDDSSENLDMIGDLDSAALPGERDKPVDWDLIGYGLKP", "B8": "nitrilase Y142A (Rhodococcus rhodochrous, UniProt A4LA85); chain MVEYTNTFKVAAVQAQPVWFDAAKTVDKTVSIIAEAARNGCELVAFPEVFIPGYPYHIWVDSPLAGMAKFAVRYHENSLTMDSPHVQRLLDAARDHNIAVVVGISERDGGSLYMTQLIIDADGQLVARRRKLKPTHVERSVAGEGNGSDISVYDMPFARLGALNCWEHFQTLTKYAMYSMHEQVHVASWPGMSLYQPEVPAFGVDAQLTATRMYALEGQTFVVCTTQVVTPEAHEFFCENEEQRKLIGRGGGFARIIGPDGRDLATPLAEDEEGILYADIDLSAITLAKQAADPVGHYSRPDVLSLNFNQRRTTPVNTPLSTIHATHTFVPQFGALDGVRELNGADEQRALPSTHSDETDRATASI", "B9": "xoxF1 (Methylorubrum extorquens, UniProt C5B120); chain NESVLKGVANPAEQVLQTVDYANTRYSKLDQINASNVKNLQVAWTFSTGVLRGHEGSPLVVGNIMYVHTPFPNIVYALDLDQGAKIVWKYEPKQDPSVIPVMCCDTVNRGLAYADGAILLHQADTTLVSLDAKSGKVNWSVKNGDPSKGETNTATVLPVKDKVIVGISGGEFGVQCHVTAYDLKSGKKVWRGYSIGPDDQLIVDPEKTTSLGKPIGKDSSLKTWEGDQWKTGGGCTWGWFSYDPKLDLMYYGSGNPSTWNPKQRPGDNKWSMTIWARNPDTGMAKWVYQMTPHDEWDFDGINEMILTDQKFDGKDRPLLTHFDRNGFGYTLDRATGEVLVAEKFDPVVNWATKVDLDKGSKTYGRPLVVSKYSTEQNGEDVNSKGICPAALGTKDQQPAAFSPKTGLFYVPTNHVCMDYEPFRVTYTPGQPYVGATLSMYPAPGSHGGMGNFIAWDNLQGKIKWSNPEQFSAWGGALATAGDVVFYGTLEGFLKAVDSKTGKELYKFKTPSGIIGNVMTYEHKGKQHVAVLSGVGGWAGIGLAAGLTDPNAGLGAVGGYAALSSYTNLGGQLTVFSLPNN", "note": "Values joined by “and” are separate records of one study, mostly repeats; a detail may differ.", "chain of UniProt P05181 (whole entry, looked up)": "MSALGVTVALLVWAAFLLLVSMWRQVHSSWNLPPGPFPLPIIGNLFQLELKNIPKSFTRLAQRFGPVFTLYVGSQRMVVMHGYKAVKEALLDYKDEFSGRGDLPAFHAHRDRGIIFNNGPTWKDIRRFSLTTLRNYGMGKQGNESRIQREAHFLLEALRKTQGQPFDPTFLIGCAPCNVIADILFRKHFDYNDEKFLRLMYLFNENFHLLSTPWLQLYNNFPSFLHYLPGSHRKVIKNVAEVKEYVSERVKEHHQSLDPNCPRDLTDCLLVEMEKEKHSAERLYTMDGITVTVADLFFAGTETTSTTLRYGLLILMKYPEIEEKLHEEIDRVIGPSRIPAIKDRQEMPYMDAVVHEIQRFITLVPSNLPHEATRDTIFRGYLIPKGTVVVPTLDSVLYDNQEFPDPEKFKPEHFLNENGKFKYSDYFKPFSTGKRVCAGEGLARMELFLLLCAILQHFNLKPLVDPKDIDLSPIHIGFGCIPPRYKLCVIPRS", "chain of UniProt J7SZ64 (whole entry, looked up)": "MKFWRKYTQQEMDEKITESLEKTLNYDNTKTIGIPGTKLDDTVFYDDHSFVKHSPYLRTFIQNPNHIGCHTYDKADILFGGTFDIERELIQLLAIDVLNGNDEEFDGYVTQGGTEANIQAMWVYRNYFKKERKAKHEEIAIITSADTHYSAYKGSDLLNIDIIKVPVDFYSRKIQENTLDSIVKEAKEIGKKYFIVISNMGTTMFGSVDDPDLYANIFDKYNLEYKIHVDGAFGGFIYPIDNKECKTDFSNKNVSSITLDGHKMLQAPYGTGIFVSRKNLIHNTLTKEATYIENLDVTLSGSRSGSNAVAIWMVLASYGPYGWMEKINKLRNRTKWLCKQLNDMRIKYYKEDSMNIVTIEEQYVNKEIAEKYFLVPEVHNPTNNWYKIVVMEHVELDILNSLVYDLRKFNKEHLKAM", "chain of UniProt P21645 (whole entry, looked up)": "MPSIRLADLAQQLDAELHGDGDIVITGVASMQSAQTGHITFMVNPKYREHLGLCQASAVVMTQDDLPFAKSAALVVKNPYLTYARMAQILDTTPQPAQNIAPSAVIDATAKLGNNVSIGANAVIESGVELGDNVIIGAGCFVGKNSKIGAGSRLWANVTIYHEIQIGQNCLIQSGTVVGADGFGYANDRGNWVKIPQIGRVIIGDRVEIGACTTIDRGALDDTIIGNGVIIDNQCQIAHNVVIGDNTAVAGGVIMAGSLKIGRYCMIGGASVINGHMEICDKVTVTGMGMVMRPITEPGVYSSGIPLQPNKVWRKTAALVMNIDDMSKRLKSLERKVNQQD"}
{"Molecule": "B1 (nitrilase Y142F)", "substrate": "N#CCCCCC#N", "setting": "pH 7.5, 25 °C", "Km": "688 µM"}
{"Molecule": "lpxD (Escherichia coli, UniProt P21645)", "substrate": "CCCCCCCCCCC[C@@H](O)CC(=O)O[C@@H]1[C@@H](N)[C@@H](OP(=O)(O)OP(=O)(O)OC[C@H]2O[C@@H](n3ccc(=O)[nH]c3=O)[C@H](O)[C@@H]2O)O[C@H](CO)[C@H]1O", "setting": "pH 8, 25 °C", "Km": "4 µM"}
{"Molecule": "CYP2E1 (Homo sapiens, UniProt P05181)", "substrate": "C=Cc1ccccc1", "setting": "pH 7.4, 37 °C", "Km": "56.1 µM"}
{"Molecule": "OXA-48 (Klebsiella pneumoniae, UniProt Q6XEC0)", "substrate": "C[C@@H](O)[C@H]1C(=O)N2C(C(=O)O)=C(S[C@@H]3CN[C@H](C(=O)N(C)C)C3)[C@H](C)[C@H]12", "setting": "pH 7.2, 30 °C", "Km": "6 µM"}
{"Molecule": "B2 (enzyme D236N)", "substrate": "Nc1ncnc2c1ncn2[C@@H]1O[C@H](CO)[C@H]2OP(=O)(O)O[C@H]21", "setting": "pH 7.5, 45 °C", "Km": "6600 µM"}
{"Molecule": "B3 (protein E27A)", "substrate": "NC[C@H](O)P(=O)(O)O", "setting": "pH 7, 25 °C, NaCl 150 mM, with: O2, Fe(II) 100 µM, ascorbate 100 µM", "Km": "4200 µM and 2350 µM"}
{"Molecule": "aromatic amino acid decarboxylase (Clostridium sporogenes, UniProt J7SZ64)", "substrate": "N[C@@H](Cc1c[nH]c2c(Br)cccc12)C(=O)O", "setting": "pH 7, 37 °C, not purified, with: PLP 40 µM", "Km": "3100 µM"}
{"Molecule": "azu N36H/Q28M/Q34H (Pseudomonas aeruginosa)", "substrate": "O=NO", "setting": "pH 6.35", "Km": "55000 µM"}
{"Molecule": "B4 (enzyme N249W)", "substrate": "CC(C)(COP(=O)(O)OP(=O)(O)OC[C@H]1O[C@@H](n2cnc3c(N)ncnc32)[C@H](O)[C@@H]1OP(=O)(O)O)[C@@H](O)C(=O)NCCC(=O)NCCSC(=O)CC(=O)O", "setting": "pH 7.4, 37 °C", "Km": "2890 µM"}
{"Molecule": "B5 (protein F432W)", "substrate": "CC(C)(COP(=O)(O)OP(=O)(O)OC[C@H]1O[C@@H](n2cnc3c(N)ncnc32)[C@H](O)[C@@H]1OP(=O)(O)O)[C@@H](O)C(=O)NCCC(=O)NCCSC(=O)Cc1cc(O)cc(O)c1", "setting": "pH 7.5, 24 °C, with: O2", "Km": "1.1 µM"}
{"Molecule": "plcB (Listeria monocytogenes, UniProt P33378)", "substrate": "CCCCCC(=O)OC[C@H](COP(=O)([O-])OCC[N+](C)(C)C)OC(=O)CCCCC", "setting": "pH 6, 37 °C", "Km": "2800 µM"}
{"Molecule": "B6 (EutE V13D)", "substrate": "CC=O", "test system": "lysate", "setting": "not purified, with: CoA, NAD+", "Km": "1150 µM"}
{"Molecule": "B7 (enzyme D418A)", "substrate": "OC[C@H]1O[C@@](CO)(O[C@H]2O[C@H](CO)[C@@H](O)[C@H](O)[C@H]2O)[C@@H](O)[C@@H]1O", "setting": "pH 5.5, 50 °C, apparent", "Km": "78000 µM"}
{"Molecule": "B8 (nitrilase Y142A)", "substrate": "Cc1cccc(C#N)c1", "setting": "pH 7.5, 25 °C", "Km": "612 µM"}
{"Molecule": "aacA-aphD (Staphylococcus aureus, UniProt P0A0C1)", "substrate": "CN[C@@H]1[C@@H](O)[C@@H](O[C@@H]2[C@@H](O)[C@H](O[C@H]3OC(CNCCO)=CC[C@H]3N)[C@@H](N)C[C@H]2NC(=O)[C@@H](O)CCN)OC[C@]1(C)O", "setting": "pH 7.5, 25 °C", "Km": "69 µM"}
{"Molecule": "B9 (xoxF1)", "substrate": "CO", "setting": "30 °C", "Km": "22 µM"}
{"note": "Excerpt of the above:"}
{"Molecule": "B5 (protein F432W)", "substrate": "CC(C)(COP(=O)(O)OP(=O)(O)OC[C@H]1O[C@@H](n2cnc3c(N)ncnc32)[C@H](O)[C@@H]1OP(=O)(O)O)[C@@H](O)C(=O)NCCC(=O)NCCSC(=O)Cc1cc(O)cc(O)c1", "setting": "pH 7.5, 24 °C, with: O2", "Km": "1.1 µM"}
{"Molecule": "aromatic amino acid decarboxylase (Clostridium sporogenes, UniProt J7SZ64)", "substrate": "N[C@@H](Cc1c[nH]c2c(Br)cccc12)C(=O)O", "setting": "pH 7, 37 °C, not purified, with: PLP 40 µM", "Km": "3100 µM"}
